Measurements pooled from the literature.
Each line is one published result; not all experiments were run side by side. Several values in a cell are separate wells, animals, samples, runs or records. Numbers after ± are the reported error.
rep main protease: Replicase polyprotein 1ab, main protease (rep, Severe acute respiratory syndrome coronavirus 2, UniProt P0DTD1)
Spike glycoprotein: Spike glycoprotein (Severe acute respiratory syndrome coronavirus 2, UniProt P0DTC2)

The inhibition of `Cc1[nH]cnc1C(=O)NC[C@H](NC(=O)c1c(Cl)ccnc1F)c1ccc2ccccc2c1` is reported as 11% (rep main protease; enzyme activity, inhibitor; 5 µM, mean of runs).
`CCc1c(C(=O)C(N)=O)c2c(OCC(=O)O)cccc2n1Cc1ccccc1` has a remaining activity of 94.2% and 95% and 93% (Daboia russelii venom phospholipase A2; enzyme activity, inhibitor; MH population; 0.001 µM, added: NOB substrate; reference: venom alone).
`CS(=O)(=O)C=CCNC(=O)c1ccc2c(c1)NC(=O)CC2` has a kinact of 0.0024 ± 0.0001 s⁻¹ (Polyprotein P1234, nsP2 protease domain (Chikungunya virus, UniProt Q5XXP4); time-dependent inhibitor).
With `O=c1cc(-c2ccccc2)c2ccc(O)c(O)c2o1` the kon was 1390 M⁻¹ s⁻¹ (Spike glycoprotein; binding, biolayer interferometry).
`O=C(NC[C@H]1CC2(CCC2)CN1C(=O)Cc1ccccc1O)c1ccc2c(c1)CCNC2=O` has an inhibition of 16.3% (rep main protease; enzyme activity, inhibitor; 5 µM, mean of runs).
For `CC(C)N(CCC(=O)c1ccc2ccccc2c1)Cc1ccccc1`, the Hill slope was 1.5 ± 0.35 (Replicase polyprotein 1ab, nsp14 N7-methyltransferase (rep, Severe acute respiratory syndrome coronavirus 2, UniProt P0DTD1); N7-methyltransferase activity, inhibitor, Py-FLINT).
For `Cc1c[nH]c2ncc(C(=O)N[C@H]3[C@H](CNc4cc(=O)n5ccccc5n4)CCC34CCC4)cc12`, the inhibition was 18.7% (rep main protease; enzyme activity, inhibitor; 5 µM, run 2).
`NC(=O)NC[C@H](N)C(=O)O` has an inhibition of 0.0331% (rep main protease; reporter gene (mKate2), inhibitor; 20 µM).
The kinact of `Nc1cc(OCCNCc2ccc(S(=O)(=O)F)cc2)ccn1` is reported as 0.000483 s⁻¹ (Calmodulin-sensitive adenylate cyclase (cya, Bacillus anthracis, UniProt P40136)).
`CC1=C(/C=C/C(C)=C/C=C/C(C)=C/C=C/C=C(C)/C=C/C=C(C)/C=C/C2=C(C)CCCC2(C)C)C(C)(C)CCC1` has a kon of 342 M⁻¹ s⁻¹ (Spike glycoprotein; binding, BLI).
The inhibition of `C(#Cc1nc2ncccc2nc1OCCN1CCCC1)c1ccccc1` is reported as -6.07% (rep main protease; viral replication, Gluc reporter; SARS-CoV-2; 20 µM).
The koff of `O=c1c(O)c(-c2ccc(O)cc2O)oc2cc(O)cc(O)c12` is reported as 0.0245 s⁻¹ (Spike glycoprotein; binding, BLI).
With `O=C(c1cccc(-c2n[nH]c(=O)[nH]2)c1)N1CCO[C@H](c2cn(-c3cccnc3)nn2)C1` the inhibition was 10.3% (rep main protease; enzyme activity, inhibitor; 5 µM, mean of runs).
For `CCOC(=O)COc1ccc(/C=C2\SC(=S)NC2=O)cc1OC`, the inhibition was 0.362% (rep main protease; viral replication, mKate2 reporter; SARS-CoV-2; 20 µM).
The inhibition of `CC(C)(O)C(F)(F)C(=O)N[C@@H](CNc1ccc2nnnn2n1)c1ccc2ccccc2c1` is reported as 14.7% (rep main protease; enzyme activity, inhibitor; 5 µM, run 2).
The inhibition of `CN1c2ccccc2C(=O)Nc2cnc(Nc3ccc(N4CCC(O)CC4)cc3)nc21` is reported as 2.98% (rep main protease; viral replication, Gluc reporter; SARS-CoV-2; 20 µM).
`O=c1cc(-c2ccc(O)cc2)oc2cc(O)c(O)c(O)c12` gave a koff of 0.00498 s⁻¹ (Spike glycoprotein; binding, BLI).
The log IC50 of `O=C(NCCCCCCCCCCCCNC(=O)c1cc(OCc2cn([C@@H]3O[C@H](CO)[C@H](O[C@H]4O[C@H](CO)[C@H](O)[C@H](O)[C@H]4O)[C@H](O)[C@H]3O)nn2)cc(OCc2cn([C@@H]3O[C@H](CO)[C@H](O[C@H]4O[C@H](CO)[C@H](O)[C@H](O)[C@H]4O)[C@H](O)[C@H]3O)nn2)c1)c1cc(OCc2cn([C@@H]3O[C@H](CO)[C@H](O[C@H]4O[C@H](CO)[C@H](O)[C@H](O)[C@H]4O)[C@H](O)[C@H]3O)nn2)cc(OCc2cn([C@@H]3O[C@H](CO)[C@H](O[C@H]4O[C@H](CO)[C@H](O)[C@H](O)[C@H]4O)[C@H](O)[C@H]3O)nn2)c1` is reported as -4.87 (Shiga toxin subunit B (stxB, Shigella dysenteriae, UniProt Q7BQ98); Escherichia coli).
The inhibition of `O=C(CC1CC(=O)NC(=O)C1)NC[C@@H]1CC2(CCC2)CN1C(=O)[C@@H]1CCCC12CCOCC2` is reported as 13.7% (rep main protease; enzyme activity, inhibitor; 5 µM, run 2).
Under “slow deactivation tau”, `CC[C@H](C)[C@H](NC(=O)[C@@H]1CCCN1C(=O)[C@H](C)NC(=O)[C@@H]1CSSC[C@@H]2NC(=O)[C@H](CC(=O)O)NC(=O)[C@H](CCCNC(=N)N)NC(=O)[C@H](CCC(=O)O)NC(=O)[C@H](CCCNC(=N)N)NC(=O)CNC(=O)[C@H](CC(=O)O)NC(=O)[C@@H]3CSSC[C@H](NC(=O)[C@H](CCC(=O)O)NC(=O)[C@H](CC(C)C)NC(=O)CNC(=O)[C@H](C)NC(=O)[C@H](CSSC[C@H](NC(=O)[C@H](Cc4ccccc4)NC(=O)[C@@H](N)CO)C(=O)N[C@@H](CC(C)C)C(=O)N[C@@H](C(C)C)C(=O)N[C@@H](CCCCN)C(=O)N[C@@H](Cc4c[nH]c5ccccc45)C(=O)N[C@@H](CCCCN)C(=O)N[C@@H](CCC(N)=O)C(=O)N3)NC2=O)C(=O)N[C@@H](Cc2c[nH]c3ccccc23)C(=O)N[C@@H](CCCCN)C(=O)N[C@@H](CCCNC(=N)N)C(=O)N[C@@H](CCCNC(=N)N)C(=O)NCC(=O)N[C@@H](CC(N)=O)C(=O)N[C@@H](CCCCN)C(=O)N[C@@H](CO)C(=O)N[C@@H](CO)C(=O)N[C@@H](C(C)C)C(=O)N1)C(=O)N[C@H](C(=O)O)[C@@H](C)O` is recorded as 1830 ± 430 ms (Acid-sensing ion channel 1 (ASIC1, Homo sapiens, UniProt P78348); outside-out patch clamp; HEK-293T ASIC1a knockout; 100 nM).
`COc1oc(=O)c2cc(N)ccc2c1Cl` gave an inhibition of 0.809% (rep main protease; viral replication, Gluc reporter; SARS-CoV-2; 20 µM).
`CC1(C)Cc2ccc(C(=O)N3CCCC[C@H](C4CN(C(=O)c5cncc(O)c5)C4)C3)cc2O1` gave an inhibition of 14.4% (rep main protease; enzyme activity, inhibitor; 5 µM).
With `C=Cc1cc(O)cc2ccc3c(C)c(O)ccc3c12` the inhibition was -2.73% (rep main protease; reporter gene (Gaussia luciferase), inhibitor; 20 µM).
With `Cc1ccc(C(C)(C)C(=O)NC[C@H](NC(=O)c2cccnc2)c2ccc3ccccc3c2)cc1` the inhibition was 10.6% (rep main protease; enzyme activity, inhibitor; 5 µM, mean of runs).
`CC(CC(=O)C[C@@H](C)[C@H]1CC(=O)[C@@]2(C)C3=C(C(=O)C[C@]12C)[C@@]1(C)CC[C@H](O)C(C)(C)[C@@H]1C[C@@H]3O)C(=O)O` (stereo partly shown) has an inhibition of 0.526% (rep main protease; reporter gene (Gaussia luciferase), inhibitor; 20 µM).
With `C[C@H](CCC(=O)O)[C@H]1CC[C@H]2[C@@H]3CC[C@@H]4C[C@H](O)CC[C@]4(C)[C@H]3C[C@H](O)[C@]12C` the Emax was -69.1% (Angiotensin-converting enzyme 2 (ACE2, Homo sapiens, UniProt Q9BYF1); spike protein binding; added: SARS-CoV-2 spike protein).
With `CC(C)(C)c1ccc(Oc2ccc(N)cn2)cc1` the inhibition was -0.0448% (rep main protease; reporter gene (Gaussia luciferase), inhibitor; 20 µM).
For `CC(C)=CCC[C@]1(C)C=Cc2c(O)c3c(c(CC=C(C)C)c2O1)O[C@]12C(=C[C@@H]4C[C@H]1C(C)(C)O[C@@]2(C/C=C(/C)C(=O)O)C4=O)C3=O`, the kon was 165 M⁻¹ s⁻¹ (Spike glycoprotein; binding, BLI).
